{"data": "Assay results collected from several papers", "note": "Numbered parts are unrelated; each lists some results of a single study. Substitutions count along the parent as printed."}
{"data": "Study 1", "target": "UBE2U UBC core domain (UniProt Q5VVX9)", "method": "yeast two-hybrid", "matrix": "yeast", "setting": "mostly zero background", "baseline": "not given", "direction": "higher = stronger interaction", "B1": "SHPRH RING domain (UniProt Q149N8); chain KTSGGVNPEPCPICARQLGKQWAVLTCGHCFCNECISIIIEQYSVGSHRSSIKCAICRQTTSHKEISY", "B2": "MDM2 RING domain (UniProt Q00987); chain TQDKEESVESSLPLNAIEPCVICQGRPKNGCIVHGKTGHLMACFTCAKKLKKRNKPCPVCRQPIQMIVLTYFP", "B3": "RMND5B RING domain (UniProt Q96G75); chain MKCWYHSVFACPILRQQTSDSNPPIKLICGHVISRDALNKLINGGKLKCPYCPMEQNPADGK", "B4": "RNF115 RING domain (UniProt Q9Y4L5); chain TQEQVDMGLECPVCKEDYTVEEEVRQLPCNHFFHSSCIVPWLELHDTCPVCRKSLNGEDSTR", "B5": "NHLRC1 RING domain (UniProt Q6VVB1); chain MREAEISLLECKVCFEKFGHRQQRRPRNLSCGHVVCLACVAALAHPRTLALECPFCRRACRGCDTSD", "Target sequence (chain)": "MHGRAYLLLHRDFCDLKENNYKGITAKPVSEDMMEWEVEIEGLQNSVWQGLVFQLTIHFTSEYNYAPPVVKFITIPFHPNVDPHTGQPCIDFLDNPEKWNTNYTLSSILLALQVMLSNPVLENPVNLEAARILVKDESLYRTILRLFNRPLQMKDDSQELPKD"}
{"Sequence": "EIKDYKARLTCPCCNMRKKDAVLTKCFHVFCFECVKTRYDTRQRKCPKCNAAFGANDFHR (RNF20 RING domain (UniProt Q5VTR2))", "lacZ reporter activity": 0}
{"Sequence": "B1 (SHPRH RING domain)", "lacZ reporter activity": 0}
{"Sequence": "FLSKVEETFQCICCQELVFRPITTVCQHNVCKDCLDRSFRAQVFSCPACRYDLGRSYAMQ (UHRF1 RING domain (UniProt Q96T88))", "lacZ reporter activity": 0}
{"Sequence": "B2 (MDM2 RING domain)", "lacZ reporter activity": 17400}
{"Sequence": "B3 (RMND5B RING domain)", "lacZ reporter activity": 16800}
{"Sequence": "B4 (RNF115 RING domain)", "lacZ reporter activity": 0}
{"Sequence": "MEEMEEELKCPVCGSFYREPIILPCSHNLCQACARNILVQTPESESPQSHRAAGSGVSDY (TRIM9 RING domain (UniProt Q9C026))", "lacZ reporter activity": 8230}
{"Sequence": "VPADASPDSKCPICLDRFDNVSYLDRCLHKFCFRCVQEWSKNKAECPLCKQPFDSIFHSV (TOPORS RING domain (UniProt Q9NS56))", "lacZ reporter activity": 16600}
{"Sequence": "B5 (NHLRC1 RING domain)", "lacZ reporter activity": 4190}
{"data": "Study 2", "target": "CCNE1, cyclin fold, Cln2 fusion (human)", "method": "yeast growth competition, sequencing", "matrix": "yeast", "setting": "weak parent motif", "baseline": "not given", "direction": "higher = stronger binding", "starting sequence": "MASTL docking peptide (human); PMIAKNLMCELDE"}
{"Variant": "PMIAKNGMCELDE [L7G]", "normalised enrichment score": -0.563}
{"Variant": "PMIAKNLMCEPDE [L11P]", "normalised enrichment score": 0.099}
{"Variant": "PMIAKCLMCELDE [N6C]", "normalised enrichment score": -0.00926}
{"Variant": "PMIALNLMCELDE [K5L]", "normalised enrichment score": 0.484}
{"Variant": "PMIAINLMCELDE [K5I]", "normalised enrichment score": 0.383}
{"Variant": "PMIAKYLMCELDE [N6Y]", "normalised enrichment score": 0.115}
{"Variant": "PMIAKNLMRELDE [C9R]", "normalised enrichment score": 0.082}
{"Variant": "PMIPKNLMCELDE [A4P]", "normalised enrichment score": 0.211}
{"Variant": "PMIAKNLMTELDE [C9T]", "normalised enrichment score": -0.163}
{"Variant": "PMQAKNLMCELDE [I3Q]", "normalised enrichment score": -0.127}
{"Variant": "PMIAKNLMGELDE [C9G]", "normalised enrichment score": -0.118}
{"Variant": "PMIAKNHMCELDE [L7H]", "normalised enrichment score": -0.932}
{"Variant": "PWIAKNLMCELDE [M2W]", "normalised enrichment score": -0.125}
{"Variant": "PMIAKNLMCELEE [D12E]", "normalised enrichment score": 0.138}
{"Variant": "PMIAKNLMCMLDE [E10M]", "normalised enrichment score": 0.31}
{"Variant": "PMIGKNLMCELDE [A4G]", "normalised enrichment score": -0.0193}
{"Variant": "PMIAKNIMCELDE [L7I]", "normalised enrichment score": 0.107}
{"Variant": "PMIAKNLMCEEDE [L11E]", "normalised enrichment score": 0.056}
{"Variant": "PMIAKNLMCEMDE [L11M]", "normalised enrichment score": -0.357}
{"Variant": "PMIAKNLMPELDE [C9P]", "normalised enrichment score": -0.0305}
{"Variant": "PYIAKNLMCELDE [M2Y]", "normalised enrichment score": 0.34}
{"Variant": "PIIAKNLMCELDE [M2I]", "normalised enrichment score": 0.0795}
{"Variant": "PMIAKNLICELDE [M8I]", "normalised enrichment score": -0.106}
{"Variant": "PSIAKNLMCELDE [M2S]", "normalised enrichment score": 0.244}
{"Variant": "PMIAKNQMCELDE [L7Q]", "normalised enrichment score": -0.382}
{"data": "Study 3", "target": "MAFF, bZIP domain (human)", "method": "DHFR protein complementation", "matrix": "yeast", "setting": "single substitutions, most at no-binding floor", "baseline": "wild-type JUN-FOS pair", "direction": "higher = stronger binding", "starting sequence": "JUN, bZIP domain (human); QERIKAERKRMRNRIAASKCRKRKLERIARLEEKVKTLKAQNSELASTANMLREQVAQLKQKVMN; partner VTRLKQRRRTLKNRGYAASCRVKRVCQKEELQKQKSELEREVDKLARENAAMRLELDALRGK"}
{"Variant": "Q55M", "binding fitness": "-1.53 natural log"}
{"Variant": "V56E", "binding fitness": "-1.39 natural log"}
{"Variant": "L38T", "binding fitness": "-1.49 natural log"}
{"Variant": "L59P", "binding fitness": "-1.49 natural log"}
{"Variant": "S43Q", "binding fitness": "-1.15 natural log"}
{"Variant": "V35P", "binding fitness": "-1.49 natural log"}
{"Variant": "K34L", "binding fitness": "-1.21 natural log"}
{"Variant": "A49Y", "binding fitness": "-1.52 natural log"}
{"Variant": "L59S", "binding fitness": "-1.36 natural log"}
{"Variant": "L52S", "binding fitness": "-1.34 natural log"}
{"Variant": "A46F", "binding fitness": "-1.48 natural log"}
{"Variant": "Q41L", "binding fitness": "-1.34 natural log"}
{"Variant": "R30F", "binding fitness": "-1.28 natural log"}
{"Variant": "L45A", "binding fitness": "-1.55 natural log"}
{"Variant": "T37D", "binding fitness": "-1.32 natural log"}
{"Variant": "T37F", "binding fitness": "-1.63 natural log"}
{"Variant": "T48M", "binding fitness": "-1.4 natural log"}
{"Variant": "R30Q", "binding fitness": "-1.28 natural log"}
{"Variant": "V56N", "binding fitness": "-1.5 natural log"}
{"Variant": "L38W", "binding fitness": "-1.48 natural log"}
{"Variant": "A29S", "binding fitness": "-1.41 natural log"}
{"Variant": "A49E", "binding fitness": "-1.42 natural log"}
{"Variant": "K39W", "binding fitness": "-1.48 natural log"}
{"data": "Study 4", "target": "RNA binding protein fox-1 homolog 2, RRM domain, GST-SBP tag (RBFOX2, Homo sapiens, UniProt O43251-10, residues 100-194)", "method": "RNA Bind-n-Seq", "molecule type": "RNA", "matrix": "in vitro", "concentration": "365 nM", "setting": "natural RNA segment, single round, ends assumed", "baseline": "no-protein control", "direction": "higher = stronger binding", "all sequences stand within": "GGGAGUUCUACAGUCCGACGAUC … UGGAAUUCUCGGGUGCCAA", "Residues (chain)": "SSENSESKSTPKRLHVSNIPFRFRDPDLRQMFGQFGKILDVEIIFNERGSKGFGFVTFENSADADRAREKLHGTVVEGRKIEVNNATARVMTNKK"}
{"Oligonucleotide": "CUCCUACCAGGUCUGGGAUUGAGAUGUUAGAGUCUUCAGUUUUAUAGCCGGCUCCUGAAAGCAGGCGACAUCAGAGUGGUAACAGUCAGUAGGCUGCAGUAGGUGUCCUA", "RBNS enrichment (R)": 0.392}
{"Oligonucleotide": "UCACUCCUCACUUGAGCUGCCUGGACUCGAGGAGCAGAGACUGGACAACCCAGGCGUCAGAAGCCUGUUUCUUACUGUCUCCCCAGAGACUCAAGUGUCUUCUGCUCCCA", "RBNS enrichment (R)": 0.691}
{"Oligonucleotide": "CCUAUUUAUGGGGUCUGACCAACUGCACCCACUCCCUAAUAAAUUCAUUCUCCUUGGGAGCCUCCUUCUCCUCUUUGUUGGGAAAUAUUUUUAGCUCUUGGCGGGCUCAA", "RBNS enrichment (R)": 0.529}
{"Oligonucleotide": "GCAUUUGCGGUUAGAAUGGUCUUGUUGCCUAAACUGUCUAAAAUUCUAAUAAAAUAACUUUCUAAGAGUCAUUGGAGUGGGCCUUUUAAAAUCUCCAUUUUGAGUUUGAU", "RBNS enrichment (R)": 0.437}
{"Oligonucleotide": "UAAUGGAAACUUAGAAGGUCAGAACUCUGUAAUGGACAUAAACUGUUAAGUACUCAGGCAUGACUACGCUAUCAGCUACGAAACAUGUUAACUCUCACUAGGAAUAGCUU", "RBNS enrichment (R)": 0.289}
{"Oligonucleotide": "AUUAGCAUGUUUGCAUAGCAACCAGUCAAGAGCAUUUACACUAUUUCUGCUGAUAUACUCACCUUAGAACUGCUCAGAACCCUGGUGCUUUAUUUUUGUUUUAAUCUUUU", "RBNS enrichment (R)": 4.14}
{"Oligonucleotide": "UUACAAUACCAAAAUCCACAAAAGCUACUUUAUUUUCAAAUAUGACAGAUAGUUUCCAGAGUACGCCAUGUAUAGCAAAGAACCCUGCCAUAGUUUUGACUCAGCCCCAU", "RBNS enrichment (R)": 0.963}
{"Oligonucleotide": "GCCCUGCCUGAGUUGUGUGCAUCCAGGGGCCUGGUGAGCCCCCAGGCUGGUGGCAUGGCCCCCCUGCCCCGUGCUGAAUGAAUGUACAGAGCCAGACAAAGCUGUGAAUG", "RBNS enrichment (R)": 0.392}
{"Oligonucleotide": "AUCGUAGAUGUUGUAGACUGAGAUUUGGGACUAUGUUGGGACCGUACAGGUGAAUGUGCCACCUCCACAAAUGGCUUCUCCGAGUGAGUCACGUCACCUGGUGCGUGGAG", "RBNS enrichment (R)": 0.615}
{"Oligonucleotide": "GGGCUAAGGUUUCCAGUCAGAUGAGGCAAACAGCAAGAGUAAGCAGUGUUACUUGCAGGUACUUUGGUUAAUGUUGAUUUAAAUUUUCAUGAAUGUGCUGGUGAACACUG", "RBNS enrichment (R)": 0.446}
{"Oligonucleotide": "ACUGGGUAAAGGAAACACUAACCUGUUUCCAGUCUCCAGACAAAGGUUUAAAGCUUUUCAAGAACUGGGCUAAAACUCAUCCAGUUUAUCUACAGAAGCUGAAAACAGGC", "RBNS enrichment (R)": 0.243}
{"Oligonucleotide": "AAUUCUGUGAGCAGAGUUUCUAGCUGCUGGAUUGUUGUCUGUCUUUAUAGCAGGUCCCAGUGAACCACAAGAAUGGCGAGGGUUAUCUGGUUACAGUUGGAUCAAUCAGU", "RBNS enrichment (R)": 0.46}
{"note": "A few entries again (study 3):"}
{"Variant": "V35P", "binding fitness": "-1.49 natural log"}
{"Variant": "K34L", "binding fitness": "-1.21 natural log"}
{"Variant": "A49Y", "binding fitness": "-1.52 natural log"}
{"Variant": "L59S", "binding fitness": "-1.36 natural log"}
{"Variant": "L52S", "binding fitness": "-1.34 natural log"}
